# Results pooled from the literature.
# CASK: Peripheral plasma membrane protein CASK (CASK, Homo sapiens, UniProt O14936)
# TDP1: Tyrosyl-DNA phosphodiesterase 1 (TDP1, Homo sapiens, UniProt Q9NUW8)
# Chain of UniProt Q9NUW8 (whole entry, looked up): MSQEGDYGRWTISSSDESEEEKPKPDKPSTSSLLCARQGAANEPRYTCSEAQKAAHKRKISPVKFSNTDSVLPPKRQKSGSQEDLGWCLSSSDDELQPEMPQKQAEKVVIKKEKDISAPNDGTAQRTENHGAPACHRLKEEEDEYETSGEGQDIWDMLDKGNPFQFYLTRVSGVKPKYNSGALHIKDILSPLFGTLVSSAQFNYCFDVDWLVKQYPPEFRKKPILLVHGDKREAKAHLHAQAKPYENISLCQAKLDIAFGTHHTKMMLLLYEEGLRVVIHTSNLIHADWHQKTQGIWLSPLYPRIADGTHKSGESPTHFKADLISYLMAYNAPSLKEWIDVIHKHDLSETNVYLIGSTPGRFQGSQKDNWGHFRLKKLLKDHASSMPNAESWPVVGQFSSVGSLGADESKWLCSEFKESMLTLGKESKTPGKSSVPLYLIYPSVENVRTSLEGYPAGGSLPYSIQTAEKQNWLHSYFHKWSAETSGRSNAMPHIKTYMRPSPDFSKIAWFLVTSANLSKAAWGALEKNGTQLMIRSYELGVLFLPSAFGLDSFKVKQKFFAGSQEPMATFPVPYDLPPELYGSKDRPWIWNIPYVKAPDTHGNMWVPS
SMILES,target,test,conditions,scale,endpoint,result
Nc1ncc2c(n1)-c1c([nH]c3ccc(C4=CCOCC4)cc13)CCC2,CASK,"binding, competition with immobilised ligand",1 µM,,remaining binding,93%
CCN1CCN(Cc2ccc(C(=O)Nc3ccc(C)c(NCc4cnc5[nH]ccc5c4OC)c3)cc2C(F)(F)F)CC1,CASK,"binding, competition with immobilised ligand",1 µM,,remaining binding,72%
COc1c(Cl)cccc1Nc1c(-c2ccncc2C#C[C@@]2(C)CCCN2C(=O)/C=C/CN(C)C)[nH]c2c1C(=O)NCC2,CASK,"binding, competition with immobilised ligand",3 µM,,remaining binding,82%
CNC(=O)C1CCN(c2cc(C)c(F)cc2NC(=O)c2ccc(-c3cc(O)ccc3C)c(C)c2)CC1,CASK,"binding, competition with immobilised ligand",1 µM,,remaining binding,98%
Cc1cnc2nc1Nc1cccc(c1)COC/C=C/COCc1cc(ccc1OCCN1CCOCC1)N2,CASK,binding,0.1 µM,,remaining binding,75%
O=C(O)c1ccc(Nc2c(-c3ccc(CON=Cc4cc5ccccc5c5ccccc45)cc3)nc3cc(-c4ccccc4)ccn23)cc1 (mixture of isomers),TDP1,"enzyme activity, inhibitor","100 µM, unpurified compound",,inhibition,18.8%
COc1cc(Nc2nccc(-c3cnn4nc(OC)ccc34)n2)cc(C(F)(F)F)c1,CASK,"binding, competition with immobilised ligand",1 µM,,remaining binding,94%
C[C@H]1CN(C(=O)c2cn(-c3ccnc(N)n3)c3cc(C#CC4(O)CCCCC4)ccc23)CCN1,CASK,"cell-free assay, TR-FRET",1 µM,,inhibition,1%
CC(C)=CC1OC(C)(C)C2C=C3C(=O)C(Cl)=CC(O)C3C3C(O)C4OC4C(=O)C132 (centres unmarked),CASK,"cell-free assay, competition with immobilised ligand",10 µM,,remaining binding,90%
C=CC(=O)N1CCc2ccc(-n3c(=O)ccc4cnc5ccc(-c6cnn(C)c6)cc5c43)cc21,CASK,KINOMEscan,1 µM,relative to: DMSO control,remaining binding,89%
CNC1C[S+]2CC[S+]3CC[S+](C1)[Ru-4]321([N]=C=S)[n]2c3ccc(OC)cc3c3c4c(c5cc(F)c[n+]1c5c32)C(=O)NC4=O (centres unmarked),CASK,KinomeScan,0.1 µM,relative to: untreated,remaining binding,94%
CN(C)c1ccnc(-n2cccc2C=NOCc2ccc(-c3nc4cc(-c5ccccc5)ccn4c3Nc3ccc(C(=O)O)cc3)cc2)c1C#N (mixture of isomers),TDP1,"enzyme activity, inhibitor","100 µM, unpurified compound",,inhibition,57.4%
C=CC(=O)N1CCCC(n2c(=O)c3ncccc3n(Cc3ccc(Oc4ccccc4)cc3)c2=O)C1 (centres unmarked),CASK,"cell-free assay, competition with immobilised ligand",1 µM,,remaining binding,56%
COc1cc(Nc2nc(C)cc(-c3cnn4nc(OC)ccc34)n2)cc(C(F)(F)F)c1,CASK,inhibitor,1 µM,relative to: control,remaining activity,65%
Cc1ccc(-c2c(/C=C(\C#N)C(=O)NC(C)C)n(CCCO)c3ncnc(N)c23)cc1,CASK,"cell-free assay, competition with immobilised ligand",1 µM,,remaining binding,53%
C=CC(=O)N1Cc2nc(-c3cc(-c4cc(Cl)cnc4Cl)c(F)cc3F)n(-c3ccncn3)c2C1,CASK,cell-free assay,1 µM,,inhibition,-1.3%
CN1CCN(Cc2ccc(-c3ccc(CO[C@H]4CCC[C@@H]4NC(=O)c4cc(-c5cnn(C)c5)cnc4N)cc3)cc2)CC1,CASK,"enzyme activity, inhibitor",0.1 µM,,inhibition,-13%

# Repeated from above:
SMILES,target,test,conditions,scale,endpoint,result
C[C@H]1CN(C(=O)c2cn(-c3ccnc(N)n3)c3cc(C#CC4(O)CCCCC4)ccc23)CCN1,CASK,"cell-free assay, TR-FRET",1 µM,,inhibition,1%
